# Experimental data gathered from unrelated publications.
# Compare with care: the assays were run in different laboratories. ± marks the error that the study gave.
# MRGPRX2: Mas-related G-protein coupled receptor member X2 (MRGPRX2, Homo sapiens, UniProt Q96LB1)
# Chain of UniProt Q96LB1 (whole entry, looked up): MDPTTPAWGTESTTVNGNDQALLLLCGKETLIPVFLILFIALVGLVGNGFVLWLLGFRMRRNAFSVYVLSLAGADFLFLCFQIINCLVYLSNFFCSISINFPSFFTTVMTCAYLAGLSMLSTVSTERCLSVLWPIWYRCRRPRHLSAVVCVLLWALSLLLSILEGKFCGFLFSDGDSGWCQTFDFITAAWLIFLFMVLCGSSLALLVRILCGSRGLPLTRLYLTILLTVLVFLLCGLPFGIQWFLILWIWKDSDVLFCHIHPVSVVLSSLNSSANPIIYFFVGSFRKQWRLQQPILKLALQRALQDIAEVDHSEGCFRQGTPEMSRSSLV
# CHRM1: Muscarinic acetylcholine receptor M1 (CHRM1, Homo sapiens, UniProt P11229)
# Chain of UniProt P02716 (whole entry, unmodified, looked up): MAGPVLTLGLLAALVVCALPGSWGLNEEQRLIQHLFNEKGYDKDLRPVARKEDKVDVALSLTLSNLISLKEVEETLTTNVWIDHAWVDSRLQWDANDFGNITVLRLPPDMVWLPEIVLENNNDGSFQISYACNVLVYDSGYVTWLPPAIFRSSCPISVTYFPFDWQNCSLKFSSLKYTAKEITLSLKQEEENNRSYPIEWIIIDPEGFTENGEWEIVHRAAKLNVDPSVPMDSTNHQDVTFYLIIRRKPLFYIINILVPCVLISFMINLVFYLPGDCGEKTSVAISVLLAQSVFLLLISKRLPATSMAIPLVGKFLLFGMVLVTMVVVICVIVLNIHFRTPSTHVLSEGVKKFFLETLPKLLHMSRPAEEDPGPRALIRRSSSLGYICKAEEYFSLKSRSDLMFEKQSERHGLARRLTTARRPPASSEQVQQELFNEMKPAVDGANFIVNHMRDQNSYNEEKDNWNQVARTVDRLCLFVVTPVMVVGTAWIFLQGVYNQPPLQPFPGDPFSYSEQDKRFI
# Chain of UniProt P20782 (whole entry, unmodified, looked up): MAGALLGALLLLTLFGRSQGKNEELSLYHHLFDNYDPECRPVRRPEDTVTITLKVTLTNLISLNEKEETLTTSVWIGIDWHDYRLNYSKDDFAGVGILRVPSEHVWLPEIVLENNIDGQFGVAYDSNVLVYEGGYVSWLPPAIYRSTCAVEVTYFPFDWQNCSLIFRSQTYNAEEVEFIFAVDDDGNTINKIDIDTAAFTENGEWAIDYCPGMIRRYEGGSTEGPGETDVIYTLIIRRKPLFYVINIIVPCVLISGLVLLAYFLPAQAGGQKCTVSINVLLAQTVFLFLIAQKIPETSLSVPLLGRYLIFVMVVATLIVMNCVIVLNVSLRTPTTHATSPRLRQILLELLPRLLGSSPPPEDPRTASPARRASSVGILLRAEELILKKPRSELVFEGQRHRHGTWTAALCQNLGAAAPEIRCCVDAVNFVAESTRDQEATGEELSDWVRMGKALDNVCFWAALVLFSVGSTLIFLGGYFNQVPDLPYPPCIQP
# Chain of UniProt P04756 (whole entry, unmodified, looked up): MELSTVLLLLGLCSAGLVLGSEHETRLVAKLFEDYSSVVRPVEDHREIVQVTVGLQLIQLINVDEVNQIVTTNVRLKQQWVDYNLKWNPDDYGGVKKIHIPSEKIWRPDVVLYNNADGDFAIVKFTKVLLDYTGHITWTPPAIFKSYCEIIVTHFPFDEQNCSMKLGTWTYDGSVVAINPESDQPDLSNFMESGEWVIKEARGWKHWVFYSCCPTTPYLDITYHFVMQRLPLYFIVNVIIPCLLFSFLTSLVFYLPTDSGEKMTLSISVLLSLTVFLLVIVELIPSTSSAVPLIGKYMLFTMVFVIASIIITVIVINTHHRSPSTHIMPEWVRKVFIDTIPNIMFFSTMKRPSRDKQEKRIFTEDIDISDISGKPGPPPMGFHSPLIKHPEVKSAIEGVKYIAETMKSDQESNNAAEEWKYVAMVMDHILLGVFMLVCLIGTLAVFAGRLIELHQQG
# Chain of UniProt P11229 (whole entry, looked up): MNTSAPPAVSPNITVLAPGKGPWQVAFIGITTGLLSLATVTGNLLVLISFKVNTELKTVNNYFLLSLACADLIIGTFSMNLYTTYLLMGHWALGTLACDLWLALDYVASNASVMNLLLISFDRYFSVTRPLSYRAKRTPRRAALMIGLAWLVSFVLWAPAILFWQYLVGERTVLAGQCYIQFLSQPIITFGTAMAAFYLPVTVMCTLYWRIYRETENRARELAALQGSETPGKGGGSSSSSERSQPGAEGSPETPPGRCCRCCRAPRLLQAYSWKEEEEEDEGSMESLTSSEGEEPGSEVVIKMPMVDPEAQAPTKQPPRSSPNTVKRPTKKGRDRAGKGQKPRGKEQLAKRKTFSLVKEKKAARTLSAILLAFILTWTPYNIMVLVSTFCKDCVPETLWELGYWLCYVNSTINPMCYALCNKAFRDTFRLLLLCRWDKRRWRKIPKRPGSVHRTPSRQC
# Chain of UniProt O95838 (whole entry, looked up): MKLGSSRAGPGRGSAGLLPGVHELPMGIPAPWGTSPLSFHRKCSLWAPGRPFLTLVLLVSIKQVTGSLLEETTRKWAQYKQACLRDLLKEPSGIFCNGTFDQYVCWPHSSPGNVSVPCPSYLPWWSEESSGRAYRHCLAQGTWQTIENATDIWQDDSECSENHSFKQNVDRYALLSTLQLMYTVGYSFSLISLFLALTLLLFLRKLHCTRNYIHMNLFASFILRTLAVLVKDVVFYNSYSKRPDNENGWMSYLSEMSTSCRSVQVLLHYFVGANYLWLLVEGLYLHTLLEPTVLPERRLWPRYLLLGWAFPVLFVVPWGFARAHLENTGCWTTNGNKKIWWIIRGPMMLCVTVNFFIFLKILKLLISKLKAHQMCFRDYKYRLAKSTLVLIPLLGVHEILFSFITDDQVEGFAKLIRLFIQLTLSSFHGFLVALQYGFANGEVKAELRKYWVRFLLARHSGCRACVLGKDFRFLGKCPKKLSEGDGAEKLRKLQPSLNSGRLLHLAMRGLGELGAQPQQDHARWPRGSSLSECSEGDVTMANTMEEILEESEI
# Chain of UniProt Q704Y3 (whole entry, unmodified, looked up): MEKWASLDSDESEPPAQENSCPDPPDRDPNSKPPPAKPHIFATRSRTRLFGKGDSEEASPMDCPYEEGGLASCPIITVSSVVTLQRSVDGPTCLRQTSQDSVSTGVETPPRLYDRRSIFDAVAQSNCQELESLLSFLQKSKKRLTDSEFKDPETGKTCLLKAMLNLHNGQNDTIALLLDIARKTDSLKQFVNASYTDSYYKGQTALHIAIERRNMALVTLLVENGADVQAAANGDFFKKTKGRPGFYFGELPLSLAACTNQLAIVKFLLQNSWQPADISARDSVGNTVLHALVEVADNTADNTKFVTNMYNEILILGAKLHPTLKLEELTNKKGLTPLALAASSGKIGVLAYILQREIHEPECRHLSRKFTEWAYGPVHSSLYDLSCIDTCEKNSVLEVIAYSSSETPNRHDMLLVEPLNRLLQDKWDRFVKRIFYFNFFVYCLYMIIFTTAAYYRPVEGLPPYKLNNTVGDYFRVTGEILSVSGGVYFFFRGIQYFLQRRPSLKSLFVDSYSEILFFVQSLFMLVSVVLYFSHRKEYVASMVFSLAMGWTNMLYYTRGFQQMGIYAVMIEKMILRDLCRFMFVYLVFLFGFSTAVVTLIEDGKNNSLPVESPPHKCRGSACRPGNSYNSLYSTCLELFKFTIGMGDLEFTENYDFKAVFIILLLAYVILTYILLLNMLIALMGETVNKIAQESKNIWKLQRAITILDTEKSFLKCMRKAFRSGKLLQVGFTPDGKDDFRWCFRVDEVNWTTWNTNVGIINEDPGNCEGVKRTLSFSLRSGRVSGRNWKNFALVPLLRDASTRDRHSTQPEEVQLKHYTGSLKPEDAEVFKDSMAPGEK
# Chain of UniProt O55040 (whole entry, looked up): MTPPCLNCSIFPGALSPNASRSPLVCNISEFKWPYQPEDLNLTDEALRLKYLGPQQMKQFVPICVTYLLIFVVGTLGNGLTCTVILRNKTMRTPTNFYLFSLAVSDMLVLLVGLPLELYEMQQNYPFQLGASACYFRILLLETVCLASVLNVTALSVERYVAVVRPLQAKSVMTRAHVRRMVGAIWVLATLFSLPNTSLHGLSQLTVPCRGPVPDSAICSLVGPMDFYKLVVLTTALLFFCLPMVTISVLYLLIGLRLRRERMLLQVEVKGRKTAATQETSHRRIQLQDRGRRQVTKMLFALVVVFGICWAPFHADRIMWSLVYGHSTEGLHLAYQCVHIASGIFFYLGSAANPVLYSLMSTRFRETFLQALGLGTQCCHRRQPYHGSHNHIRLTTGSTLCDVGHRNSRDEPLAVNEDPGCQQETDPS
# Chain of UniProt P61981 (whole entry, looked up): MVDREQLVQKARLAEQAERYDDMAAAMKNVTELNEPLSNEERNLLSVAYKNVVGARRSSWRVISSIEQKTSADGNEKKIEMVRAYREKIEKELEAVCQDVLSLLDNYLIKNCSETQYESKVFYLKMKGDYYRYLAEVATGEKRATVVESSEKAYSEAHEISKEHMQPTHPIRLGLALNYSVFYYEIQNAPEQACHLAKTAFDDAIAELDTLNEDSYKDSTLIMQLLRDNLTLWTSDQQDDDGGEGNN
# Chain of UniProt Q14994 (whole entry, looked up): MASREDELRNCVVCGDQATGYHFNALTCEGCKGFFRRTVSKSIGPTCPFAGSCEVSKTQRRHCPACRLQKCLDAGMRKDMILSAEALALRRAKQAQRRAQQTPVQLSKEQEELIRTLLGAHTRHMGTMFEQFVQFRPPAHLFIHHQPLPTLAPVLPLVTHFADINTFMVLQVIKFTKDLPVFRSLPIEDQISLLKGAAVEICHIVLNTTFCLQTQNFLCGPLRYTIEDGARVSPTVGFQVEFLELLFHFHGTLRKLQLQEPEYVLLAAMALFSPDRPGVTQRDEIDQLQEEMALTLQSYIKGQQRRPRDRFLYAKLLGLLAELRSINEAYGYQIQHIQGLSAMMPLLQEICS
SMILES,target,assay,test system,setting,EC50
c1cncc([C@@H]2CCCCN2)c1,"Chrnd/Chrna1/Chrne (Mus musculus, UniProt P02716+P04756+P20782)","channel open probability, agonist",mouse,wild type,630 µM
CC[C@H](C)[C@H](NC(=O)[C@H](CCC(=O)O)NC(=O)[C@H](CCC(=O)O)NC(=O)[C@H](C)NC(C)=O)C(=O)N[C@@H](CCC(=O)O)C(=O)O,MRGPRX2,"β-arrestin-2 recruitment, agonist",,,> 20 µM
c1cc(N2CCNCC2)c2cc[nH]c2c1,CHRM1,"ERK1/2 phosphorylation, agonist",CHO cells,,> 20 µM
NC(=O)[C@@H]1CCCN1C(=O)[C@H](CCC(=O)O)NC(=O)[C@@H]1CCC(=O)N1,MRGPRX2,"β-arrestin-2 recruitment, agonist",,,> 20 µM
CN1CCC[C@H]1c1cccnc1,"Chrnd/Chrna1/Chrne (Mus musculus, UniProt P02716+P04756+P20782, G173K/S470W)",cell-based,,,0.7 µM
CC[C@H](C)[C@H](NC(=O)[C@H](Cc1ccccc1)NC(=O)[C@H](CC(=O)O)NC(=O)[C@H](CCCNC(=N)N)NC(=O)[C@@H](NC(=O)[C@H](C)NC(=O)[C@H](CC(C)C)NC(=O)[C@H](CC(N)=O)NC(=O)[C@H](CC(=O)O)NC(=O)[C@H](CC(C)C)NC(=O)[C@@H](NC(=O)[C@@H](NC(=O)[C@H](CO)NC(=O)[C@H](CCSC)NC(=O)[C@H](CCC(=O)O)NC(=O)[C@H](CC(=O)O)NC(=O)[C@H](CO)NC(=O)[C@H](Cc1ccccc1)NC(=O)[C@H](CO)NC(=O)CNC(=O)[C@H](CC(=O)O)NC(=O)[C@H](C)NC(=O)[C@@H](N)Cc1c[nH]cn1)[C@@H](C)O)[C@@H](C)CC)[C@@H](C)O)C(=O)N[C@@H](CC(N)=O)C(=O)N[C@@H](Cc1c[nH]c2ccccc12)C(=O)N[C@@H](CC(C)C)C(=O)N[C@H](C(=O)N[C@@H](CCC(N)=O)C(=O)N[C@H](C(=O)N[C@@H](CCCCN)C(=O)N[C@H](C(=O)N[C@H](C(=O)N[C@@H](CC(=O)O)C(=O)O)[C@@H](C)O)[C@@H](C)CC)[C@@H](C)O)[C@@H](C)CC,"GLP2R (Homo sapiens, UniProt O95838)","reporter gene, agonist, CRE-luciferase",HEK-293T,12 h,0.00656 µM
C[C@H](N)Cn1ncc2ccc3c(c21)CCCO3,"5-hydroxytryptamine receptor 2B (Rattus norvegicus, UniProt P30994)","contraction, agonist",rat stomach fundus,,0.0019 ± 0.0008 µM
Clc1cc2c(cc1Cl)Oc1cc(Cl)c(Cl)cc1O2,"Uncharacterized protein (Takifugu rubripes, UniProt Q4JHL6)","reporter gene, agonist, dual-luciferase",COS-7,24 h,0.0003 ± 0.0001 µM
CCN1CCN(c2cc(C=O)ccc2[N+](=O)[O-])CC1,"YWHAG/RELA, phospho-Ser45 p65 peptide (Homo sapiens, UniProt P61981+Q04206)","ternary complex formation, stabilizer, fluorescence anisotropy",,,> 1000 µM
Cc1cc(N2CCNCC2)nc2ccccc12,CHRM1,"ERK1/2 phosphorylation, agonist",CHO cells,,> 20 µM
CC(C)C[C@H](NC(=O)[C@H](Cc1ccccc1)NC(=O)[C@H](Cc1ccc(O)cc1)NC(=O)CNC(=O)[C@H](CCCCN)NC(=O)[C@H](CO)NC(=O)[C@H](CCC(N)=O)NC(=O)CNC(=O)[C@@H](NC(=O)[C@H](CO)NC(=O)[C@@H]1CCCN1C(=O)[C@H](CO)NC(=O)[C@H](CCC(N)=O)NC(=O)[C@H](Cc1ccc(O)cc1)NC(=O)[C@H](CCC(=O)O)NC(=O)[C@H](C)NC(=O)[C@H](CCCCN)NC(=O)[C@@H](N)Cc1ccccc1)C(C)C)C(=O)N[C@@H](Cc1ccccc1)C(=O)N[C@@H](CCCNC(=N)N)C(=O)N1CCC[C@H]1C(=O)N[C@@H](CCCNC(=N)N)C(=O)N[C@@H](CC(N)=O)C(N)=O,"Neuromedin-U receptor 1 (Mus musculus, UniProt O55040)","IP-1 accumulation, agonist, IP-1",,mean of independent runs,0.00017 µM
O=C(O)c1ccc(CN2C(=O)CN(C(=O)c3ccco3)c3cc(-c4ccccc4)c(Oc4ccc(C(=O)O)cc4)cc32)cc1,"Soluble guanylate cyclase alpha1/beta1 complex (Homo sapiens, UniProt Q02108+Q02153)","enzyme activity, activator, purified recombinant enzyme",,,0.766 µM
O=C1c2ccccc2C(=O)C1c1ccccc1,"Nuclear receptor subfamily 1 group I member 3 (Homo sapiens, UniProt Q14994)",cell-based,,,525 ± 148 µM
CCCC[C@H](NC(=O)[C@H](CO)NC(C)=O)C(=O)N[C@@H](Cc1ccccc1)C(=O)N[C@@H](CO)C(=O)N[C@@H](CO)C(=O)N[C@@H](CC(N)=O)C(=O)N[C@@H](CCCNC(=N)N)C(=O)N[C@@H](CCC(N)=O)C(=O)N[C@@H](CCCCN)C(=O)N[C@H](C(=O)N[C@@H](CC(C)C)C(=O)N[C@@H](CCC(=O)O)C(=O)N[C@@H](CCCNC(=N)N)C(=O)N[C@H](C(=O)N[C@@H](CCC(=O)O)C(=O)N[C@H](C(=O)N[C@@H](CC(C)C)C(=O)N[C@@H](CC(N)=O)C(=O)N[C@@H](CCC(N)=O)C(=O)N[C@@H](CCC(=O)O)C(=O)N[C@@H](Cc1c[nH]c2ccccc12)C(=O)N[C@@H](CCCCN)C(=O)N[C@@H](CCC(N)=O)C(=O)N[C@@H](CCCNC(=N)N)C(N)=O)[C@@H](C)CC)[C@@H](C)O)[C@@H](C)CC,MRGPRX2,"β-arrestin-2 recruitment, agonist",,,> 20 µM
CCCCC/C=C\C/C=C\C/C=C\C/C=C\CCCC(=O)NCCO,"Trpv1 (Mus musculus, UniProt Q704Y3, N552Q)","ion current, agonist, whole-cell patch clamp",,"24 °C, N552Q, +80 mV",4.65 ± 0.71 µM
